{"data": "Assay results gathered from unrelated publications", "note": "Numbered parts are unrelated; each lists some results of a single study."}
{"data": "Block 1", "target": "Histone acetyltransferase KAT6A, winged helix 2, GST fusion (KAT6A, Homo sapiens, UniProt Q92794, residues 85-181)", "technique": "protein binding microarray", "form": "double-stranded DNA, one strand shown", "matrix": "in vitro", "tested at": "not given", "notes": "8-mer, flanks averaged, mean of 2 arrays, mostly near background", "reference": "not given", "reading": "higher = stronger binding", "Residues (chain)": "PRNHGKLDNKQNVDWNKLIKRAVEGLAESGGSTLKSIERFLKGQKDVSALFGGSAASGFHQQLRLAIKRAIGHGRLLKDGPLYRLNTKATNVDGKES"}
{"Strand": "CGCGTAGA", "E-score": 0.135}
{"Strand": "CATGACAA", "E-score": -0.038}
{"Strand": "CTAGTTTC", "E-score": 0.0159}
{"Strand": "GAGACCCA", "E-score": -0.0419}
{"Strand": "TCCTGCAA", "E-score": -0.0128}
{"Strand": "ACATGAAG", "E-score": 0.00144}
{"Strand": "CATTTACA", "E-score": -0.0829}
{"data": "Block 2", "target": "Protein C-ets-1 (ETS1, Homo sapiens, UniProt P14921, residues 1-441, full length assumed)", "technique": "protein-binding microarray", "form": "double-stranded DNA, one strand shown", "matrix": "in vitro", "tested at": "not given", "notes": "k-mer, scored over probes, only values ≥0.25", "reading": "higher = stronger binding", "Construct (chain)": "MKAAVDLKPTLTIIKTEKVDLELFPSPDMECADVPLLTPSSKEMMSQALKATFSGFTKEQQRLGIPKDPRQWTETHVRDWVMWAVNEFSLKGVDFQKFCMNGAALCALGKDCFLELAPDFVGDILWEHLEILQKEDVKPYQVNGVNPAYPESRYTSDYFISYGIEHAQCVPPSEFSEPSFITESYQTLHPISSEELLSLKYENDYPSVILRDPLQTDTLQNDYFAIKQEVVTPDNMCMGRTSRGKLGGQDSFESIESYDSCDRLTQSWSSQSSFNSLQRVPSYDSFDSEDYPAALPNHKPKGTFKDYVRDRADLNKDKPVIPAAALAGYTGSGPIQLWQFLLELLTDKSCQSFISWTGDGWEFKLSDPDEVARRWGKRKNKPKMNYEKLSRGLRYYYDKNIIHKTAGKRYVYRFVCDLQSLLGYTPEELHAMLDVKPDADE"}
{"Strand": "CGGATCCA", "E-score": 0.304}
{"Strand": "GGCCCGGA", "E-score": 0.372}
{"Strand": "CATCCTGA", "E-score": 0.401}
{"Strand": "AAGACGGA", "E-score": 0.333}
{"data": "Block 3", "target": "Centromere-binding protein 1, full length, N-terminal tag (CBF1, Saccharomyces cerevisiae, UniProt P17106, residues 1-351)", "technique": "protein-binding microarray", "form": "double-stranded DNA, one strand shown", "matrix": "in vitro", "tested at": "0.8 µM", "notes": "whole 60-bp probe, no competitor", "reading": "higher = stronger binding", "constant ends, left off below": "… GTCTTGATTCGCTTGACGCTGCTG", "UniProt P17106, sequence (whole entry, looked up)": "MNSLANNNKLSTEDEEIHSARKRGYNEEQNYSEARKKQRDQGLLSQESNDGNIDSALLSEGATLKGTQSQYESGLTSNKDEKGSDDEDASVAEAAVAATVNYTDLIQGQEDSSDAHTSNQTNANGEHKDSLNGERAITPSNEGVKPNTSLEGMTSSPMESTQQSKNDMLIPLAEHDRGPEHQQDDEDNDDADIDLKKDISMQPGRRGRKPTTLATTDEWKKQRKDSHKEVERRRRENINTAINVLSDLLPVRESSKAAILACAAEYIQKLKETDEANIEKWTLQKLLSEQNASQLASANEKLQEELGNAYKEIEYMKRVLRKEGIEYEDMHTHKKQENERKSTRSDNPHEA"}
{"Strand": "CTACCATTTTTAAGATTGGTGATGGATAGAATTTTC", "fluorescence intensity [a.u.]": 530}
{"Strand": "CTACTGATAAAAACCTCCGTGATTTTTTGAATATTC", "fluorescence intensity [a.u.]": 543}
{"Strand": "GAATTCCAAGTGAGTCACCTCTACCGTTGGAACTAG", "fluorescence intensity [a.u.]": 487}
{"Strand": "CTATTATATGACATTCACATGAATTCAACAGCTTTC", "fluorescence intensity [a.u.]": 558}
{"Strand": "GAATAGCGCGTATAGCACGTAGAGTAAAGTTATTAG", "fluorescence intensity [a.u.]": 517}
{"data": "Further values, each from its own experiment"}
{"Molecule": "PhoQ, residues 284 288 289 292 302 303 TTCLQL", "target": "PhoP, residues 12 14 15 18 19 MHTVL (Escherichia coli, UniProt P23836)", "test": "Sort-seq, refers to: YFP reporter", "system": "E. coli", "conditions": "PhoQ-PhoP variant library, with: 10 µM Mg2+", "scale": "reference: high Mg2+ state, higher = stronger signaling", "measurement": "fold induction", "value": 8.05}
{"note": "Some of these lines once more (block 1):"}
{"Strand": "ACATGAAG", "E-score": 0.00144}
{"Strand": "CATGACAA", "E-score": -0.038}
